Experimental data from different studies.
A part holds a random share of what one study measured.

Sample 1
Target: RNA binding protein fox-1 homolog 2, RRM domain, GST-SBP tag (RBFOX2, Homo sapiens, UniProt O43251-10, residues 100-194)
Technique: RNA Bind-n-Seq
Form: RNA
Medium: in vitro
Concentration: 365 nM
Setting: natural RNA segment, single round, ends assumed
Baseline: no-protein control
Reading: higher = stronger binding
Measurement: RBNS enrichment (R)
Shared flanks, not repeated: GGGAGUUCUACAGUCCGACGAUC … UGGAAUUCUCGGGUGCCAA
Residues (chain): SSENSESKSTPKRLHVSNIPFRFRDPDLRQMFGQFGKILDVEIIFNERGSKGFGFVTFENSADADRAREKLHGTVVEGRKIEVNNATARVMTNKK
ACUGUAGAUGCUGGCCUGUCACUCUAUACCUCUCGCUUUAGUUAACCGGCAUGGAUGUGACCGGAAUGCCAUGGCCUAUCCAAGAGGAAAGGUGACCUCAGAUGCACCUG: 0.58
UAAACACUUUCUGGAACCCGAGACUUGGCCAUAAAGAUAAUGCUGCAUUUUUCUGUCAGAAUCACAUAUGAUGUGUGUUCUGUAGAGGUUAUUUCUGCAUGGAAACUCAA: 0.418
AACCACGUGUAAUUUUGUGGAAAUGAUAUAACAGCUAUUAAUACUACUAUAACAUAGGCAUAAAUAUUUUCGUGUUUAUAUGCAUAUACAAGUUAAAAUAAUUAGAAACU: 0.44
CUCUGUUUUGCUGGGUCUGUGGAGCCCACUUGAGCCCAGCAGUUAACUCCCCUGGCACUCAGCUCUGCCUCUAGUUCAGCCGCCCAGCCACUGAGAGUCAGGGCAUGGUG: 0.307
ACCUAGCAUGUUUUGUGGACGCAGUCAAGCUGCCACAGUCUGGUCAUCGUUGUUGUUGUGCUGACGUCUGGUCAUGUAUUAUUAGUGUGUCUCGUUCUCCACGGUGCUGG: 23
UUUGGAAAUAACCAGGGUUAAAGUUUUUAAUUUCUCAGGAAGAGCUCUUCAGCAUGGCAGGACGUGUAAUGAGGGCUUUCGCAAGUCCUUCAGCGCUGCAGAGCAGUAAG: 0.787
CCACCUGCUGCCAGGCCUCACCAAAGCCAACUGUCACAGGGCCACCUGGGCCACUCAGAGACCUCAGUGGGACUGGGAGAGUGGAGGGAACUACAUCAGCGCCCACACUG: 0.383
UUUACUCUCUGCCGUGGGUCUGCAGUCGCUGCAACCUACCCUCUCUCUGCCUCAGCCUUACACCCAAGCAGUAGGUCUGUGCUCUCCCUGUCUCUAGGUCGCUGAGAGAG: 0.59

Sample 2
Cell line: HEK-293T
Observed: pseudovirus infection
Technique: FDA-approved drug library screen
Organism: VSV pseudotyped with SARS-CoV-2 spike
Concentration: 10 µM
Time: 16 h
Baseline: vehicle-treated
Measurement: GFP-positive cells
COc1cccc2c1C(=O)c1c(O)c3c(c(O)c1C2=O)C[C@@](O)(C(=O)CO)C[C@@H]3O[C@H]1C[C@H](N)[C@@H](O)[C@H](C)O1: 94.4%
CCCCCCCCCCC[C@@H](C[C@@H]1OC(=O)[C@H]1CCCCCC)OC(=O)[C@H](CC(C)C)NC=O: 79.8%
CCCCNc1cc(C(=O)O)cc(S(N)(=O)=O)c1Oc1ccccc1: 90%

Sample 3
Target: Interferon regulatory factor 7, full length, phosphomimetic (IRF7, Homo sapiens, UniProt Q92985, residues 1-503, S471D/S472D/S475D/S476D/S477D/S483D/S484D/S487D)
Sequence of UniProt Q92985 (whole entry, unmodified, looked up): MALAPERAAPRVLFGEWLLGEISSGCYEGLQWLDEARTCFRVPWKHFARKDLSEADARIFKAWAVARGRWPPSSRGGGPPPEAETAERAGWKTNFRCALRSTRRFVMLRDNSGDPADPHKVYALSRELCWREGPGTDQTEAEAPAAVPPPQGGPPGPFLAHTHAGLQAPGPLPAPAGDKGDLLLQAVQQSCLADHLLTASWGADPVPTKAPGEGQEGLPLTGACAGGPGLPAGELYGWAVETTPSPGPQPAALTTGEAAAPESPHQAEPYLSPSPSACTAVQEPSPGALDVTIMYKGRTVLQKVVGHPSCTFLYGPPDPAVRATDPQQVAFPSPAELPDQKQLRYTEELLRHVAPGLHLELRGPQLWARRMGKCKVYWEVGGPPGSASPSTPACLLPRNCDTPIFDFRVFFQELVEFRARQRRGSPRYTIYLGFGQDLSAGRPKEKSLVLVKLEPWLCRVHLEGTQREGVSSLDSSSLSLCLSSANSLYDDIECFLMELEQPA
Technique: protein-binding microarray
Form: double-stranded DNA, one strand shown
Medium: in vitro
Concentration: 2200 nM top
Setting: 60-bp whole probe
Added: salmon DNA 0.4 mg/ml
Baseline: random background probes
Reading: higher = stronger binding
Measurement: fitted relative affinity
Shared flanks, not repeated: GCCTAGCAC … GTCTTGATTCGCTTGACGCTGCTG
TTAGATTTCGACACTGGGTTAGTGCTA: 0.975 z-score
CTGCGGTGAGTGCGTTATCGGTGCTAG: -0.271 z-score
GACTGACTGGGGTTTCGGGACGTGCTA: 0.991 z-score
TCATTTCTGTTGTCTGTGACTGTGCTA: 2.54 z-score
GACGTTTTCAGTTTCGAGACGTGCTAG: 6.74 z-score
TTAGATATCGGGTATCGATTAGTGCTA: 0.123 z-score
AAACCTATAGGGCCTGACTTCGTGCTA: -0.397 z-score
TTAGGTTTCTGGTATCGGTTAGTGCTA: 2.3 z-score

Sample 4
Target: Replicase polyprotein 1ab, main protease (rep, Severe acute respiratory syndrome coronavirus 2, UniProt P0DTD1)
Observed: enzyme activity
Concentration: 20 µM
Setting: with DTT
Measurement: inhibition
O=C1C=CC(=O)C2=C1C1c3ccccc3C2c2ccccc21: -14.3%
Nc1nc(-c2ccc(Cl)c(Cl)c2)c(-c2ccncc2)s1: -20.4%
Sc1nnc(Nc2ccccc2)s1: 97.3%

Sample 5
Target: Replicase polyprotein 1ab, polymerase (rep, Severe acute respiratory syndrome coronavirus 2, UniProt P0DTD1)
Observed: enzyme activity
Action: inhibitor
Concentration: 20 µM
Measurement: inhibition
NC(=O)c1ncn([C@@H]2O[C@H](CO)[C@@H](O)[C@H]2O)c1O: -2.67%
CC(C)N(CCC(=O)c1ccc2ccccc2c1)Cc1ccccc1: 8.04%
O=C1NC(=O)c2c1c1c3ccccc3n3c1c1c2c2ccccc2n1[C@H]1CC[C@@H]3O1: 0.87%
CN(C)Cc1ccc(S(=O)(=O)n2ccc(/C=C/C(=O)NO)c2)cc1: 1.71%
Nc1nc2ccc(Cl)cc2c2nc(-c3ccco3)nn12: -3.86%
COc1ccccc1OCC(O)COC(N)=O (stereo not shown): 19%
O=c1n(Cl)c(=O)n(Cl)c(=O)n1Cl: 4.62%
O=C(NOCC(O)CO)c1cc(Br)c(F)c(F)c1Nc1ccc(I)cc1F (stereo not shown): 11.7%
O=c1cc(N2CCNCC2)oc2c(-c3ccccc3)cccc12: 4.46%
CC1=N[C@H](C(=O)O)CCN1: 1.1%
O=c1[nH]c(C2CCCN2)nc2c1oc1ccc(Cl)cc12 (stereo not shown): 0.04%
O=c1[nH]c2ccccc2c(=O)n1CCCN1CCN(c2ccccc2)CC1: 1.89%
CCN(CC)c1ccc(/C=N/NC(=O)c2ccc(O)cc2)cc1: -2.02%
CCOc1cc(C=O)ccc1O: -3.14%
O=c1ccc2cc3ccoc3cc2o1: -0.31%
Nc1nc(Nc2ccc(S(N)(=O)=O)cc2)nn1C(=O)c1c(F)cccc1F: -0.76%
NC1CCN(c2nc3c(cc2F)c(=O)c(C(=O)O)cn3-c2ccc(F)cc2F)C1 (stereo not shown): 7.78%
COc1ccc2c3c([nH]c2c1)[C@H](CC(C)C)N1C(=O)[C@H](CCC(=O)OC(C)(C)C)NC(=O)[C@@H]1C3: -5.07%
Cc1nc(-c2cccnc2)sc1C(=O)Nc1ccccc1-c1cn2c(CN3CCOCC3)csc2n1: -1.58%
CN(C)CCOC(=O)COc1ccc(Cl)cc1: -2.66%
O=C(NNc1nc2cc(F)ccc2n2cccc12)c1cnccn1: -1.19%
Cc1cccc(C)c1NC(=O)CN1CCCCCC1: -0.77%
NC(=O)c1noc([C@H](CCCC2CCCCC2)CC(=O)NO)n1: -3.11%
COc1ccc(CN2C(=O)C(=O)c3cc(OC(F)(F)F)ccc32)cc1: -16.4%
O=C(O)c1cc(=O)[nH]c(=O)[nH]1: -5.93%

Sample 6
Target: Sal-like protein 4, full length isoform B (SALL4, Homo sapiens, UniProt Q9UJQ4-2, residues 1-616)
Technique: universal PBM
Form: double-stranded DNA, one strand shown
Medium: in vitro
Concentration: not given
Setting: 8-mer, flanks averaged, mean of replicates
Reading: higher = stronger binding
Measurement: E-score
Residues (chain): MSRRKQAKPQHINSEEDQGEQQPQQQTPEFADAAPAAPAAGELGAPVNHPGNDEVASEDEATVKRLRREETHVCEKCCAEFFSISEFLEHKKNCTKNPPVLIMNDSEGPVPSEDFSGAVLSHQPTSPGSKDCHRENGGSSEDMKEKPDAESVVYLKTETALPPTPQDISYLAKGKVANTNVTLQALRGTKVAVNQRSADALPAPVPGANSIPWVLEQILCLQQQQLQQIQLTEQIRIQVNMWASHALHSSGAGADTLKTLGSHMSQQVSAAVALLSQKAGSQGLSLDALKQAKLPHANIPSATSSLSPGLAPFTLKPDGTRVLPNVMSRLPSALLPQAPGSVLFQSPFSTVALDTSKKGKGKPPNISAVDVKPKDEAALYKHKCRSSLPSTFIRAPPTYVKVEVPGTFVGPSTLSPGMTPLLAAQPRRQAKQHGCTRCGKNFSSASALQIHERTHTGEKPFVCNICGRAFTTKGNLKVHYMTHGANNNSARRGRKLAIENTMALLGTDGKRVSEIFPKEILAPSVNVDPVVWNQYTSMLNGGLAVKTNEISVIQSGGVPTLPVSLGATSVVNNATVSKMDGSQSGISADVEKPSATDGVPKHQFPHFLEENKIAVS
AACGAGCC: -0.0644
ATTCTGAG: 0.18
GAGACTCA: -0.0756
TAAATGCA: 0.284
AGCCCTTC: -0.169
GAACTCCC: -0.103
AATAGAGA: 0.191
GAGCAGAC: -0.145

Excerpt of the above (sample 5):
O=c1cc(N2CCNCC2)oc2c(-c3ccccc3)cccc12: 4.46%
CC1=N[C@H](C(=O)O)CCN1: 1.1%
O=c1[nH]c(C2CCCN2)nc2c1oc1ccc(Cl)cc12 (stereo not shown): 0.04%
O=c1[nH]c2ccccc2c(=O)n1CCCN1CCN(c2ccccc2)CC1: 1.89%
CCN(CC)c1ccc(/C=N/NC(=O)c2ccc(O)cc2)cc1: -2.02%
CCOc1cc(C=O)ccc1O: -3.14%
O=c1ccc2cc3ccoc3cc2o1: -0.31%
